Measurements pooled from the literature.
Each numbered part is a random draw from the data of one study; scales do not carry over between parts.
Sequence of UniProt P51957 (whole entry, looked up): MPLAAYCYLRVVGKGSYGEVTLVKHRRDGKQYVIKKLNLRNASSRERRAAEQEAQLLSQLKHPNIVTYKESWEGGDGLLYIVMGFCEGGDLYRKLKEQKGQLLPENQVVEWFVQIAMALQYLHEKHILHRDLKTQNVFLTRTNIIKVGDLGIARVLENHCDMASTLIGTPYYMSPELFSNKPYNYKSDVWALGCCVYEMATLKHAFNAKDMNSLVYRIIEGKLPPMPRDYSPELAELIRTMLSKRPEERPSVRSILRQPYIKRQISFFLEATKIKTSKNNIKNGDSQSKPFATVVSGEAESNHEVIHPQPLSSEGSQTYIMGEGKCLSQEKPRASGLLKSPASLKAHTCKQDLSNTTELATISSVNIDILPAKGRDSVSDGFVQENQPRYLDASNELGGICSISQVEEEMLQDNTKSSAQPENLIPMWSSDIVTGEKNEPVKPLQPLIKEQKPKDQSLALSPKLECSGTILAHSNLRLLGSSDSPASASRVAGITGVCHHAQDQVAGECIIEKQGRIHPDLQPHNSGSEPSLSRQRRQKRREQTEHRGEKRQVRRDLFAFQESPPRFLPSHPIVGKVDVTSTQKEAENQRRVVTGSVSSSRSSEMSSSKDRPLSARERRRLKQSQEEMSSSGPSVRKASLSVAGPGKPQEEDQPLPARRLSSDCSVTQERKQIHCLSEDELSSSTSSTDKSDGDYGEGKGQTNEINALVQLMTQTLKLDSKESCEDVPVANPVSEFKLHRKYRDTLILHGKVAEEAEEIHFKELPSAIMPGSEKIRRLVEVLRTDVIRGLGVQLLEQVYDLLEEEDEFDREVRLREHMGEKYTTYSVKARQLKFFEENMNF
Sequence of UniProt Q9P0L2 (whole entry, looked up): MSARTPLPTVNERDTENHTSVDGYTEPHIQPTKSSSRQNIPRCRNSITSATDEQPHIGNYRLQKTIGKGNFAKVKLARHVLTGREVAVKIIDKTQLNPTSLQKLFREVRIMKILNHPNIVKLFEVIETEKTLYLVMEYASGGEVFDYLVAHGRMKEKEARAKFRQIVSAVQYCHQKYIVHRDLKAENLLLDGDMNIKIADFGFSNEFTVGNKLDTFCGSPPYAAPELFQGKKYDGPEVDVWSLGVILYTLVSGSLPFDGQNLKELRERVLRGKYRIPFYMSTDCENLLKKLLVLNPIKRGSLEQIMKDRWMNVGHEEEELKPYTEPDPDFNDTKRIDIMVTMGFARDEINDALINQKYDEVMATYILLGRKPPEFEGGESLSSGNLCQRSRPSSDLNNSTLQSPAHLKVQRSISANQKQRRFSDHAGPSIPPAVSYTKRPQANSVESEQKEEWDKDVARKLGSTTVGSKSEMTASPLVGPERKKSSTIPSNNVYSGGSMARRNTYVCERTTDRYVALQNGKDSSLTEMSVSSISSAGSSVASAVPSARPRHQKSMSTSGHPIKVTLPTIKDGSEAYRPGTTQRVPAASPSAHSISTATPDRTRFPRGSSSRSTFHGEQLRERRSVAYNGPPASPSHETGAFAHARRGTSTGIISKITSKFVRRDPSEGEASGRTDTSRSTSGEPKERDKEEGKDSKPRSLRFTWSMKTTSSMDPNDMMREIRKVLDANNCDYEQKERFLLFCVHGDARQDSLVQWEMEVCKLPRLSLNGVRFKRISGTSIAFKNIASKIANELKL
Sequence of UniProt Q9UF33 (whole entry, looked up): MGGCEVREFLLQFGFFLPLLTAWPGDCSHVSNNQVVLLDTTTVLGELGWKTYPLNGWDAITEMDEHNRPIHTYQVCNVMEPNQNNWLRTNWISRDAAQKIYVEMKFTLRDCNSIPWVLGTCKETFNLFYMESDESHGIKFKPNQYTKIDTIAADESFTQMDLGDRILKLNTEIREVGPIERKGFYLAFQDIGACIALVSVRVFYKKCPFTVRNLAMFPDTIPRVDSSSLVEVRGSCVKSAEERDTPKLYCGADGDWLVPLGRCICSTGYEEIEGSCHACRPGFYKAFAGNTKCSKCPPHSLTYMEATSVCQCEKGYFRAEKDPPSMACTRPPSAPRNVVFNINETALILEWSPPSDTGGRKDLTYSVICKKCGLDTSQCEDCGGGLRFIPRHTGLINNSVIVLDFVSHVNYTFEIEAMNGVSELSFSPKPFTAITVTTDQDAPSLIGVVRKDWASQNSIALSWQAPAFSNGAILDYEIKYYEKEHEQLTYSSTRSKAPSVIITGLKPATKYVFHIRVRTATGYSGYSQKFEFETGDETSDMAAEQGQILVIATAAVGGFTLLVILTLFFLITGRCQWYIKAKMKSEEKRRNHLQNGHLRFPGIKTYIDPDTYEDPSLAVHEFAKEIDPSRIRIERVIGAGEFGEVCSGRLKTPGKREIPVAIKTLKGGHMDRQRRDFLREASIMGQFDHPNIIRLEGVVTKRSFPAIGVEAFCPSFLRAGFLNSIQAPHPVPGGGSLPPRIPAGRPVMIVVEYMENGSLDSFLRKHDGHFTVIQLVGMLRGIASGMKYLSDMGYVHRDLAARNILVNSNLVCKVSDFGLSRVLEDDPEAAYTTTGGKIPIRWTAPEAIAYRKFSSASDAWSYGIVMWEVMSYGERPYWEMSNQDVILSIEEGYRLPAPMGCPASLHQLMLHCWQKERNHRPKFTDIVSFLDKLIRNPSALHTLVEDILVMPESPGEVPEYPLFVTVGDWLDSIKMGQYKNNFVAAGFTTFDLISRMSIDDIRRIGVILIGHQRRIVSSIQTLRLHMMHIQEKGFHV
Sequence of UniProt P54753 (whole entry, looked up): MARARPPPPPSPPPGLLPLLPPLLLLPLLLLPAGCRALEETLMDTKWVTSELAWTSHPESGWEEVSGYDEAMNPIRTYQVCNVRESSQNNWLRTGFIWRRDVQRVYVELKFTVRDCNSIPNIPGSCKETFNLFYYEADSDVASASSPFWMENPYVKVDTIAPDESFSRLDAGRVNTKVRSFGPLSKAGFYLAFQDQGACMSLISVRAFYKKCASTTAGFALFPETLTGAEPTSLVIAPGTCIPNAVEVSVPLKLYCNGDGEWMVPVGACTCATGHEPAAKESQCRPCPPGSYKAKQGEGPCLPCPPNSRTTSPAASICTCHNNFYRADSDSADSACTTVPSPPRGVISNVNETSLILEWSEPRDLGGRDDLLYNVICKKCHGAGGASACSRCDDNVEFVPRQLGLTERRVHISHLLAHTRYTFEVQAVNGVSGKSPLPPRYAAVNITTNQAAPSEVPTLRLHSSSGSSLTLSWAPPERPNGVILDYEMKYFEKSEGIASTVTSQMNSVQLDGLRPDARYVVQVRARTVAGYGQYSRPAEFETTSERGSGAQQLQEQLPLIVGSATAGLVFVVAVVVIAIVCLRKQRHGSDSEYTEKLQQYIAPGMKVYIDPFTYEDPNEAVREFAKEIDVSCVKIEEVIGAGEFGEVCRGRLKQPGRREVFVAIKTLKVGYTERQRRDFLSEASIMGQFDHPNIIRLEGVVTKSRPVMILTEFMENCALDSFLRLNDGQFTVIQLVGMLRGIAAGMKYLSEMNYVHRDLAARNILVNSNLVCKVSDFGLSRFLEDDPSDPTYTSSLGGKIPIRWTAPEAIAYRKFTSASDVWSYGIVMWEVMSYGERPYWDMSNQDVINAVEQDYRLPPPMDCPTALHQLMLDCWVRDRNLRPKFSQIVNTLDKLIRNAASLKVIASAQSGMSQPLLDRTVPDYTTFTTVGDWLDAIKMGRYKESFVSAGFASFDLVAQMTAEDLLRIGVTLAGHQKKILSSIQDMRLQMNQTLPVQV

Study 1 — cell line: A-375; tested at: 100 µM; time: 18 h; quantity: viability
C[C@H](CCC(=O)O)[C@H]1CC[C@H]2[C@@H]3[C@H](O)C[C@@H]4C[C@H](O)CC[C@]4(C)[C@H]3CC[C@]12C: 96.9%
O=C1NCC2(CCN(CCc3ccccc3)CC2)O1: 89%
CCCCCOC(=O)Nc1nc(=O)n([C@@H]2O[C@H](C)[C@@H](O)[C@H]2O)cc1F: 112%

Study 2 — read-out: enzyme activity; action: inhibitor; tested at: 0.5 µM; relative to: control; quantity: remaining activity
Target: Serine/threonine-protein kinase pim-3 (PIM3, Homo sapiens, UniProt Q86V86)
Nc1ncnc2n[nH]c(Nc3ccc(F)cc3)c12: 95%
O=c1c2ccccc2[nH]c(=S)n1CCN1CCC(=C(c2ccc(F)cc2)c2ccc(F)cc2)CC1: 108%
O=C(Nc1cccc(Nc2cc(Nc3cccc(C(F)(F)F)c3)ncn2)c1)C1CC1: 133%
CNC(=O)c1cc(Oc2ccc(NC(=O)Nc3ccc(Cl)c(C(F)(F)F)c3)cc2)ccn1: 100%
COc1ccc(C(=O)Nc2sc3c(c2C(N)=O)CCCC3)cc1OC: 109%
Cc1nc(-c2ccccc2)c(-c2ccncc2)o1: 106%
Cn1sc(=O)n(Cc2ccccc2)c1=O: 120%
CCOC(=O)c1c(C)[nH]c(/C=C2\C(=O)Nc3ccccc32)c1C: 75.1%
Nc1ccc2ncnc(NCCc3ccc(Oc4ccccc4)cc3)c2c1: 104%
Oc1ccc(-c2nc(-c3ccncc3)c(-c3ccc(F)cc3)[nH]2)cc1: 98.7%
COc1ccc(OC)c2c(=S)c3ccccc3[nH]c12: 93.1%
Cn1c2ccccc2c2c3c(c4c5ccccc5n(CCC#N)c4c21)CNC3=O: 17.3%
COc1cc2ncnc(Nc3ccc(F)c(Cl)c3)c2cc1OCCCN1CCOCC1: 74.6%
Nc1[nH]nc2nc3ccccc3nc12: 94%

Study 3 — read-out: cell-free assay; method: competition with immobilised ligand; tested at: 1 µM; quantity: remaining binding
Compound: CS(=O)(=O)c1cc(C2(NC(=O)c3cncc4c3cnn4-c3ccc(F)cc3)CC2)ccn1
MARK1 (Homo sapiens, UniProt Q9P0L2): 100%
NEK4 (Homo sapiens, UniProt P51957): 100%
EPHA6 (Homo sapiens, UniProt Q9UF33): 100%
EPHB3 (Homo sapiens, UniProt P54753): 100%

Study 4 — method: competition protein-binding microarray; molecule type: double-stranded DNA, one strand shown; medium: in vitro; tested at: 2 µM; together with: Cbf1 competitor, 0.05 µM; reading: higher = stronger binding; quantity: fluorescence intensity
Target: Phosphate system positive regulatory protein PHO4, full length, GST-tagged (PHO4, Saccharomyces cerevisiae, UniProt P07270, residues 1-312)
Notes: whole 60-bp probe, lowest competitor level
Construct (chain): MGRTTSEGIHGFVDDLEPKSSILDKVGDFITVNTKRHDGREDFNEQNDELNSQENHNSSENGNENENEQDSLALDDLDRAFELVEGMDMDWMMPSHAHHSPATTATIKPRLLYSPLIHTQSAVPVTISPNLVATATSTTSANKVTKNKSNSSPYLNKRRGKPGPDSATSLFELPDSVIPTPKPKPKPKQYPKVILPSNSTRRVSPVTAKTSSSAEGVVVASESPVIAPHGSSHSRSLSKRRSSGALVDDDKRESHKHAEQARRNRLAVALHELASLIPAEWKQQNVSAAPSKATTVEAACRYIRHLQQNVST
AAGATATTGTTCGACCATGTGTTAAATGCCAGTAATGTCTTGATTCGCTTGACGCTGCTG: 9790 a.u.
AATTTGATAATTTGGCATGTGCGATCTCTTCGAAAAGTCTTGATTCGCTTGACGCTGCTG: 11100 a.u.
ACTTGTCCAGAAAGGAACGTGACTCGCAATTGGAAGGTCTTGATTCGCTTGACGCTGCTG: 14000 a.u.
CTAACGAAGGTTTTTCACGTGTCGTACAAGCCAAGTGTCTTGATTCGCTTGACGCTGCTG: 14500 a.u.
GCAACCAGGGGCCACCACGTGAAGAACTGAGCAATCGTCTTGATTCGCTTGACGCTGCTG: 12800 a.u.
AAATTACTAAGTTGTCACTGCACTTACCCCGTATGAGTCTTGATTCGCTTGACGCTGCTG: 4020 a.u.
TATTATAATACTCAACACGTGACTCGAGCCTTCCCAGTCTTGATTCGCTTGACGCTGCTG: 15400 a.u.
TAGGCGCAGACCGCGCTCGTGAAGCAGACCTCCCGGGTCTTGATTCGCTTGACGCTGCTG: 5600 a.u.
